Published values gathered from unrelated publications.
Every numbered part comes from another study and shows a few of its results, in no order. Changes are numbered by the printed parent chain.
Chain of UniProt Q9UK32 (whole entry, looked up): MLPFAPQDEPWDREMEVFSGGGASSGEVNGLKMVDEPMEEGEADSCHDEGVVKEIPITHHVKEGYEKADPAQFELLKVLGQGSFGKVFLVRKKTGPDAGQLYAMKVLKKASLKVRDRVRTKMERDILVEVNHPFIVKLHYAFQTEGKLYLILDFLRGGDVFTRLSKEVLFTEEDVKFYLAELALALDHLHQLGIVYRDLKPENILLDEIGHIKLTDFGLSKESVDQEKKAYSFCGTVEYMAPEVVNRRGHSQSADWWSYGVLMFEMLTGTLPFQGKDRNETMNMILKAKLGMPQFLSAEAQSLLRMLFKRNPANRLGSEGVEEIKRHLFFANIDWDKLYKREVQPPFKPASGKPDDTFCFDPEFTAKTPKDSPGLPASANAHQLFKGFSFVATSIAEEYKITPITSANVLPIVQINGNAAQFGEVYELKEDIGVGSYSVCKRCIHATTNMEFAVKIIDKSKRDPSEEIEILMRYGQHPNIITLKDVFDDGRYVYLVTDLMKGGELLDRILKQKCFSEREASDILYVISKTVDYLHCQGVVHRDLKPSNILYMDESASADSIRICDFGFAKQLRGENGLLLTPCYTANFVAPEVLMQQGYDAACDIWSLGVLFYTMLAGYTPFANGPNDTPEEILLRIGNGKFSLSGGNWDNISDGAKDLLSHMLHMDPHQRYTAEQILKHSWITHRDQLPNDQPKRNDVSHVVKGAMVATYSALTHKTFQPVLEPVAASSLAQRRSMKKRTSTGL
Chain of UniProt Q9NY57 (whole entry, looked up): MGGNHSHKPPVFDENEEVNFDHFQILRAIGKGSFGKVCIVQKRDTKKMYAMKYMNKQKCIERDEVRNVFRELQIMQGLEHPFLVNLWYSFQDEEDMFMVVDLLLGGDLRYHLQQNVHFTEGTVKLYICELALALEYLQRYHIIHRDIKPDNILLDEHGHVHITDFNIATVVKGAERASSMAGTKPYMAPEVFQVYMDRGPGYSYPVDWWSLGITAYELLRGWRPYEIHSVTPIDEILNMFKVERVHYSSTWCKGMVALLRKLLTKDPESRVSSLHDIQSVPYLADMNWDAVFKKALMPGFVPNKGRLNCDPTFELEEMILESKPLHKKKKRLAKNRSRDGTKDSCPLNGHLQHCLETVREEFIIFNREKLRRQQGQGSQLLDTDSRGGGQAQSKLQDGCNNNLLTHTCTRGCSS
Chain of UniProt O60331 (whole entry, looked up): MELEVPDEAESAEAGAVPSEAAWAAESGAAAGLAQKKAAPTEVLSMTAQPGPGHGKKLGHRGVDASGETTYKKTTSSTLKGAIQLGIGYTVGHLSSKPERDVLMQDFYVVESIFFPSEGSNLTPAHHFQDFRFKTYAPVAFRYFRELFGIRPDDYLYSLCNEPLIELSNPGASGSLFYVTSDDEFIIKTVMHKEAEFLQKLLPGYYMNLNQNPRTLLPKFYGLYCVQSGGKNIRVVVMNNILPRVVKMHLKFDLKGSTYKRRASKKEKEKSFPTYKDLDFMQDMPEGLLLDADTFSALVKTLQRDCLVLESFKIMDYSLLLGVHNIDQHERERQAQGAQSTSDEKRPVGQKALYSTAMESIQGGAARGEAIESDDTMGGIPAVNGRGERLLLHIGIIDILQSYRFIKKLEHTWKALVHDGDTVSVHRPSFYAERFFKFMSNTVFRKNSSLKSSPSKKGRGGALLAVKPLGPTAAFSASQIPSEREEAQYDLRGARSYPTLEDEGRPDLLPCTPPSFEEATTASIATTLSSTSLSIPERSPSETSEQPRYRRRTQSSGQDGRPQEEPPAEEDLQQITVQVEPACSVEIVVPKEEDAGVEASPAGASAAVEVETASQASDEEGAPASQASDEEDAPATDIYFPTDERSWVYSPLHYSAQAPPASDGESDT
Chain of UniProt O75747 (whole entry, looked up): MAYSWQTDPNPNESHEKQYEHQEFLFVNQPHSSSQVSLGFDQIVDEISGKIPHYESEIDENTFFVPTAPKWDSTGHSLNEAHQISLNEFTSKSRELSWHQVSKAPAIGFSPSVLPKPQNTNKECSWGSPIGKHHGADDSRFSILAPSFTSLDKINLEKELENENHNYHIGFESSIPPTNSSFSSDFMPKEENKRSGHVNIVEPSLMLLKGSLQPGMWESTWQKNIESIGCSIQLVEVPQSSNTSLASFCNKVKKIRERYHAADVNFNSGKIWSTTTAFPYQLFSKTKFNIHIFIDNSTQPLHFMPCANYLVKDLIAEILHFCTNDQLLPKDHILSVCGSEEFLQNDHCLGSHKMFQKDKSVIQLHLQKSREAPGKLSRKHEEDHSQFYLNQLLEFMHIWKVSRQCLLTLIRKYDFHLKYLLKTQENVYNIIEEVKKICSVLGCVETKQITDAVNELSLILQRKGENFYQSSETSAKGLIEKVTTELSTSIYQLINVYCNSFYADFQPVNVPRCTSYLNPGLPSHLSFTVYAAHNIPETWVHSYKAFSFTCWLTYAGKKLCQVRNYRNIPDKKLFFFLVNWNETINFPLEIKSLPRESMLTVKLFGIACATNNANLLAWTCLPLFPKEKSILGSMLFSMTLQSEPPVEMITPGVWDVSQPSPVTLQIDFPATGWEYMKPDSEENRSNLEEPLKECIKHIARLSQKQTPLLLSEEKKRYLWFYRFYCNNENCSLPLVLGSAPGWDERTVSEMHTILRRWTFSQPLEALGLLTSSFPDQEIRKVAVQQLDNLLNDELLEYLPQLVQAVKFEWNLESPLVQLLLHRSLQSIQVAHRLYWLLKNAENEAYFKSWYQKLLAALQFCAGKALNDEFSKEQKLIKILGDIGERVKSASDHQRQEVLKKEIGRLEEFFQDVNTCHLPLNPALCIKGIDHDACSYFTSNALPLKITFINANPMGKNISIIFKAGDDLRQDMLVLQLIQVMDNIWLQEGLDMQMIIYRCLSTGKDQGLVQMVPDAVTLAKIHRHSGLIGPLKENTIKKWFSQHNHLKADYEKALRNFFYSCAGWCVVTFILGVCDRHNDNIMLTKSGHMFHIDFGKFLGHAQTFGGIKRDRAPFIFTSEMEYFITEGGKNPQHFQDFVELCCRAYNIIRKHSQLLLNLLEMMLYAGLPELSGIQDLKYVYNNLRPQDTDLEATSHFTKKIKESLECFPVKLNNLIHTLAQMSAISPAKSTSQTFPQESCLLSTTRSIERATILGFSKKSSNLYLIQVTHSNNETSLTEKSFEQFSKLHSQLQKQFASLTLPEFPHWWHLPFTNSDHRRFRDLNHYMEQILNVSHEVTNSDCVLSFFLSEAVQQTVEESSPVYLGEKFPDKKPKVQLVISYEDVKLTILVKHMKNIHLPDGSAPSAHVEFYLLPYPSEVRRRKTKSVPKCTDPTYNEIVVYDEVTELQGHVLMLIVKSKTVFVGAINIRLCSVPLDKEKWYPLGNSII
Chain of UniProt P42685 (whole entry, looked up): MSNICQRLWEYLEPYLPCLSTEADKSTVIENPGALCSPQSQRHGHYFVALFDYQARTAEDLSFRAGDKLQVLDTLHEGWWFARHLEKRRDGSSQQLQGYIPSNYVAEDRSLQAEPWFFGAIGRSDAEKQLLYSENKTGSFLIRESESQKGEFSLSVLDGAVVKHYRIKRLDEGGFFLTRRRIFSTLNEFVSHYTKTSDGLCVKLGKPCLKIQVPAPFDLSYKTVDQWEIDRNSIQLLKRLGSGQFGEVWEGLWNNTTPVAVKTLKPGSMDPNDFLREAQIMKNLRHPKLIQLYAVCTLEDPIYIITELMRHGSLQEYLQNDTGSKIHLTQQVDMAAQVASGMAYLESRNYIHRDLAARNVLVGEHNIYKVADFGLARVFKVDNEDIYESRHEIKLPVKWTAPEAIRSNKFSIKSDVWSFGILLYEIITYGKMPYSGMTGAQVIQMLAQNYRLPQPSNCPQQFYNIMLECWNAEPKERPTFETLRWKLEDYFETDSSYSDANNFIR
Chain of UniProt Q9P0L2 (whole entry, looked up): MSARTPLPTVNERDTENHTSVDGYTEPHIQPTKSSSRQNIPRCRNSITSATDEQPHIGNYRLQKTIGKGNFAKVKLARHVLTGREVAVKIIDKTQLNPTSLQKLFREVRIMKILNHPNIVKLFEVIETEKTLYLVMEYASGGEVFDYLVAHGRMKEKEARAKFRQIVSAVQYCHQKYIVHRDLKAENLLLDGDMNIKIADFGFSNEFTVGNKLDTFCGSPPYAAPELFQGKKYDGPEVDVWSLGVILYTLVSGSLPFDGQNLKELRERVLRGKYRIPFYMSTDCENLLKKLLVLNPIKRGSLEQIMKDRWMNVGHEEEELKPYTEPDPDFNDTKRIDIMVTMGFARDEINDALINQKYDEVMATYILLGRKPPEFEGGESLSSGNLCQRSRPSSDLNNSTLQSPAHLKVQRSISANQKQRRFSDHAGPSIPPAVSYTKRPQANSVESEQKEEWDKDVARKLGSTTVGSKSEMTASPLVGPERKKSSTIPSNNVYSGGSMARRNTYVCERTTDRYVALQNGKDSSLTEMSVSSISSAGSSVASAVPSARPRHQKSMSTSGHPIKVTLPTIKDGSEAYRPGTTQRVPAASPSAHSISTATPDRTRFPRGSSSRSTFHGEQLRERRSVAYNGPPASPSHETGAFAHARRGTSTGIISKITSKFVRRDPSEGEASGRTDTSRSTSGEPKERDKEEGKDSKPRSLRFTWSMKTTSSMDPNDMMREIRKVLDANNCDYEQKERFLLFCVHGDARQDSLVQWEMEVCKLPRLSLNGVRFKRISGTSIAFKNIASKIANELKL

Set 1
Substance: PhoQ, residues 284 288 289 292 302 303 AMDMFI
Method: Sort-seq
Measured: YFP reporter
Medium: E. coli
Setting: PhoQ-PhoP variant library
Added: 10 µM Mg2+
Reference: high Mg2+ state
Direction: higher = stronger signaling
target | fold induction
PhoP, residues 12 14 15 18 19 TQALL (Escherichia coli, UniProt P23836) | 0.415
PhoP, residues 12 14 15 18 19 NYFRM (Escherichia coli, UniProt P23836) | 1.22
PhoP, residues 12 14 15 18 19 QYFSL (Escherichia coli, UniProt P23836) | 0.672

Set 2
Structure (SMILES): C[C@@H]1CN(c2cc(-c3nn(C)c4ccc(OC5(C)CC5)cc34)ncn2)C[C@H](C)O1
Read-out: cell-free assay
Method: competition with immobilised ligand
Tested at: 1 µM
target | remaining binding
MARK1 (Homo sapiens, UniProt Q9P0L2) | 100%
EIF2AK1 (Homo sapiens, UniProt Q9BQI3) | 60%
SLK (Homo sapiens, UniProt Q9H2G2) | 100%
PIP5K1C (Homo sapiens, UniProt O60331) | 90%
BRSK2 (Homo sapiens, UniProt Q8IWQ3) | 100%
PIK3C2G (Homo sapiens, UniProt O75747) | 100%
PIK3CA (Homo sapiens, UniProt P42336, M1043I) | 96%
MAP3K20 (Homo sapiens, UniProt Q9NYL2) | 100%
MAPK1 (Homo sapiens, UniProt P28482) | 100%
FRK (Homo sapiens, UniProt P42685) | 100%
Ribosomal protein S6 kinase alpha-6, N-terminal kinase domain (RPS6KA6, Homo sapiens, UniProt Q9UK32) | 78%
FGFR3 (Homo sapiens, UniProt P22607) | 100%
ULK2 (Homo sapiens, UniProt Q8IYT8) | 59%
STK32B (Homo sapiens, UniProt Q9NY57) | 100%

Set 3
Target: CCNB2, cyclin fold, Cln2 fusion (human)
Method: yeast growth competition, sequencing
Medium: yeast
Setting: weak parent motif
Reference: not given
Direction: higher = stronger binding
Starting sequence: CDT1 docking peptide (human); PPARRRLRLSVDE
Variant | normalised enrichment score
PPARKRLRFSVDE [R5K L9F] | 0.981
PPARRRLALSVDE [R8A] | 0.438
PPARRRARLSVDE [L7A] | 0.624
PPARRRLRASVDE [L9A] | 0.414
APARRRLRLSVDE [P1A] | 0.397
PPARKRLRLSVDE [R5K] | 0.863
PPARRRLRLSVDA [E13A] | 0.816
PPARRALRLSVDE [R6A] | 0.612

Set 4
Target: Histone acetyltransferase KAT6A, winged helix 2, GST fusion (KAT6A, Homo sapiens, UniProt Q92794, residues 85-181)
Method: protein binding microarray
Molecule type: double-stranded DNA, one strand shown
Medium: in vitro
Tested at: not given
Setting: 8-mer, flanks averaged, mean of 2 arrays, mostly near background
Reference: not given
Direction: higher = stronger binding
Residues (chain): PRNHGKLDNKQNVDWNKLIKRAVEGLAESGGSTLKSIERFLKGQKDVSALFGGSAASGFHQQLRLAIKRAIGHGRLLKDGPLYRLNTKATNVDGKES
Sequence | E-score
CCTAATGC | -0.116
CGAGTGTC | 0.0267
AAATTTGA | 0.0723
AAGACGGT | -0.175
AAGTGGAT | -0.0417
GCGCTACC | 0.0132
TCTTATCA | 0.0521
CTCGGATA | -0.017

Excerpt of the above (set 1):
target | fold induction
PhoP, residues 12 14 15 18 19 QYFSL (Escherichia coli, UniProt P23836) | 0.672
PhoP, residues 12 14 15 18 19 NYFRM (Escherichia coli, UniProt P23836) | 1.22
PhoP, residues 12 14 15 18 19 TQALL (Escherichia coli, UniProt P23836) | 0.415
